# Results gathered from unrelated publications.
# A part holds a random share of what one study measured.

# Sample 1
# Target: Prothrombin, mature alpha-thrombin (F2, Homo sapiens, UniProt P00734)
# Technique: aptamer microarray, sandwich
# Molecule type: DNA with 2'F-ANA
# Matrix: in vitro
# Tested at: 200 nM
# Setting: whole 15-mer aptamer, many near background
# Together with: Cy3 exosite-II aptamer, 400 nM
# Reading: higher = stronger binding
# Strand: GGTTGGTGTGGTTGG
Modification,mean fluorescence intensity [a.u.]
2'F-ANA at 2 3 4 5 6 9 10 13 14 15,62.9
2'F-ANA at 2 5 7 8 9 10 11 12 13 14 15,55
2'F-ANA at 1 2 3 4 5 10,47.8
2'F-ANA at 3 4 8 9 10 12 13,291
2'F-ANA at 2 4 5 8,79
2'F-ANA at 1 2 5 6 9 11 13 15,67.3
2'F-ANA at 1 3 5 6 8 9 11 12 13 14 15,52
2'F-ANA at 2 3 4 5 8 11 12 13 15,98.5
2'F-ANA at 1 4 6 7 8 9 15,138
2'F-ANA at 4 5 6 8 11 13 15,52.2
2'F-ANA at 4 7 8 10 12 13 14,65
2'F-ANA at 1 5 7 9 11 12 13,70.7
2'F-ANA at 2 4 7 8 10 11,96.8
2'F-ANA at 3 4 5 8 9 11 12 13 14,56.5
2'F-ANA at 6 7 8 9 10 13 15,135
2'F-ANA at 2 3 4 8 11 15,532
2'F-ANA at 1 2 3 5 7 8 9 10 12 14,50.5
2'F-ANA at 2 4 6 7 9 10 11 12 14 15,59.3
2'F-ANA at 4 5 6 8 9 10 12,51.2
2'F-ANA at 1 3 5 7 8 10 11 12 13,48.8
2'F-ANA at 2 3 4 5 7 8 9 12 13 14,56.6
2'F-ANA at 1 3 4 5 6 7 10 11 13,61.8
2'F-ANA at 1 2 5 8 9 11 12 14,51.6
2'F-ANA at 1 3 4 6 7 8 9 10 11 12 13,68.1
2'F-ANA at 2 5 6 12 13 15,109

# Sample 2
# Target: RING finger protein unkempt homolog, zinc fingers 1-6, SBP tag (UNK, Homo sapiens, UniProt Q9C0B0, residues 30-357)
# Sequence of UniProt Q9C0B0 (30-357, looked up): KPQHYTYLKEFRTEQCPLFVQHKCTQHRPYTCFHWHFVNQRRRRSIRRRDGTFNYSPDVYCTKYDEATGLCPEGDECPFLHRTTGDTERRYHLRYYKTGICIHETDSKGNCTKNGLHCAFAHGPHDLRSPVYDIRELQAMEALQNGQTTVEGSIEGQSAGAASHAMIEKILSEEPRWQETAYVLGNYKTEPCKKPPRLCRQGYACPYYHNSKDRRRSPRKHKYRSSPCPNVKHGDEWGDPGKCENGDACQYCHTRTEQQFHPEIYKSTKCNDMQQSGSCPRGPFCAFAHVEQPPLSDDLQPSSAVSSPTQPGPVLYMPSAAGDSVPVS
# Technique: RNA Bind-n-Seq
# Molecule type: RNA
# Matrix: in vitro
# Tested at: 100 nM
# Setting: RNA with constant flanks, vertebrate orthologous sites, ends assumed
# Baseline: input RNA pool
# Reading: higher = stronger binding
# All sequences stand within: GGGAGUUCUACAGUCCGACGAUC … CAACAGAGGAUUGAGCAUCA
Strand,bound/input enrichment
UUUGCGUGGCAAUUAGAGUGGGUUCUCCCACUCAUACUCUCACACAGAAGAAAGCUCAAAUAAGUACUUUACACAUCUGAUUAUGCUGUUCUGUUUCUGUUUUCUAUUUUUACAUAUACA,0.666 ratio
CAGGAAUGGCCCCAAUCCCACCUCUGUUUAUUCUGUAAACUACAACCUGUAAAUAACGUUUAGGAUUCCUAUUGUAUCAAAAUUAAUUUUUAUGAAAUAAAUUAUAUUUCCUAGUCUAAU,0.756 ratio
AAAUUUAUUUCAUGCCCUGGACUCCCUAUCGUACCGAUACUUUAAUAGAAUAUGCUUCUUUAGAAGAUUUCCAAAACAGUCGCCAAACAACAACAUAUAAACUUCCAAAUCGAGUAGAUG,1.35 ratio
UACAGCAAAAGAGCCAAGCAGUAGCAUUGUUGUUGGUUUUUUUUUUAAUGUAAAAAAAAAUAGGUCCAGACUUUGUUUCCGUAUUCAAUCUUAAAAAUAAAAAAAUACCUCAGUACUGUU,0.268 ratio
CCAGUUUGUAUGUACAUUAUUCACAUUCCUCUCUGUUUCGUUUUGGUGGAAAAAGACAUUUUAGCCUUUUUAAGGUUAUUGAUUUAAUUUCAUGUUAUUUGGUUGCAUGAAGUUGCCCUU,0.394 ratio
ACGCAUUUUGCAACUUGGAUGUGGUCUGCACAGGAAGCUGCUGGCCCCUCCACAACAACACAGAAAAUGUUUGUCUUUUUUUUAAGAUGUUAAGACUGAAUUGAAUUUACUAAAAAUGUA,0.219 ratio
UUAUUUUGUACAGGGCCUUCUCUGUACUAGUUCGUUGUCGUUAUAAAACAGUUAGCAAAACGGCCUACAUUUGUAUUUAUUUUCUACUCCGUAUUUUCCCCCACCUUAUGUGUGUUCUUU,0.689 ratio
UCAUUGUACUGCAAAAAUCAUCCUCGUUUUAAAUUAGCCACAGUGAUAACUAGUCUGCACUAGUAGAAUCAUUUACCUUUUAAGUUAUCUGCUUUGUCUGAUACCUGAAACAUAUCAAAA,0.349 ratio

# Sample 3
# Target: Interferon regulatory factor 5, full length, phosphomimetic (IRF5, Homo sapiens, UniProt Q13568-2, residues 1-514, K96S/S451D/S453D/S456D/S462D)
# Technique: protein-binding microarray
# Molecule type: double-stranded DNA, one strand shown
# Matrix: in vitro
# Tested at: 250 nM
# Setting: 60-bp whole probe
# Together with: salmon DNA 0.4 mg/ml
# Baseline: random background probes
# Reading: higher = stronger binding
# All sequences stand within: GCCTAGCAC … GTCTTGATTCGCTTGACGCTGCTG
Strand,log fluorescence [z-score]
TTAGGTTTCCGTATCCTTTAGTGCTAG,1.29
TCATTTTTCATCATTGCACTGTGCTAG,1.66
CCCTCCCTAATTCTGATTGGGTGCTAG,-0.158
GACGGTATCGGGTATCGGAACGTGCTA,3.6
TTAGGGCTGGGTATCGGTTAGTGCTAG,3.83
TTCTCTTTTATTTTTTTTATGTGCTAG,1.78
TCATTTTTTTTTTTGGAACTGTGCTAG,0.962
TTAGGTTACGGACTGGGTTAGTGCTAG,-0.443
TCATATTTATGTATACAACTGTGCTAG,0.957
GACAGTTTCGACTTTCGGGACGTGCTA,9.84
GACGATTTCAGACAGGAGACGTGCTAG,0.132
GACGGTATCGGTTTCGGGTCGTGCTAG,8.75
TCCTCTCTCTTTCCACTTGTGTGCTAG,0.692
AGGCTTTTTTTTTTTTTTTTGTGCTAG,0.567
GACGCTTTCGGGACTGGAGACGTGCTA,6.29
TTATGTTTCGACACTGGGTTAGTGCTA,6.33
TTAAGACTGGGTCTCGGTTAGTGCTAG,0.154
TTAGATTTCAGTATCGATTTGTGCTAG,7.91
TTAGGACTGCTAATGCTTTAGTGCTAG,-0.195

# Sample 4
# Target: Histone acetyltransferase KAT6A, winged helix 1, GST fusion (KAT6A, Homo sapiens, UniProt Q92794, residues 1-85)
# Technique: protein binding microarray
# Molecule type: double-stranded DNA, one strand shown
# Matrix: in vitro
# Tested at: not given
# Setting: 8-mer, flanks averaged, mean of 2 arrays, mostly near background
# Baseline: not given
# Reading: higher = stronger binding
# Residues (chain): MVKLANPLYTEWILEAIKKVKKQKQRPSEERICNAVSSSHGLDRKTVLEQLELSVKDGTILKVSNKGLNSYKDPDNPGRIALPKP
Strand,E-score
ACTGGGCA,-0.272
TCGATAAA,0.172
AGGTAAAA,-0.14
AAGAATGT,-0.171
TGAGTTAA,-0.103
CAGTGTTA,0.0038
ATGCCAAT,-0.274
GTCGGGTA,0.222
CCTGTTAA,-0.211
CTCCCTGA,-0.183
AGTAGGCC,-0.107
CCTGGCAC,-0.125
TAGGGCGA,-0.105
AGTCCCGA,0.0432
CTTCGTGA,0.035
CATTTTCG,-0.112
CTGTTTGA,-0.265
AAAGCGTT,-0.013
GTGTTGCA,-0.0182
AAACTACG,0.123
CACAATAC,-0.116
ATTTTCTA,-0.319
CGGCTTAA,0.351
AGCAGAAA,-0.137
CGCGATAA,0.134

# For quick reference, copied from above (sample 1):
Modification,mean fluorescence intensity [a.u.]
2'F-ANA at 1 2 5 8 9 11 12 14,51.6
2'F-ANA at 4 7 8 10 12 13 14,65
2'F-ANA at 1 3 5 6 8 9 11 12 13 14 15,52
2'F-ANA at 1 3 5 7 8 10 11 12 13,48.8
2'F-ANA at 6 7 8 9 10 13 15,135
2'F-ANA at 1 4 6 7 8 9 15,138
2'F-ANA at 3 4 5 8 9 11 12 13 14,56.5
